Experimental data collected from several papers.
Lines come from different studies, so protocols differ. Values joined by “and” are separate records of one study, mostly repeats; a detail may differ. ± marks the error that the study gave.

Structure (SMILES) | assay | test system | setting | how to read | quantity | result
C[C@@H]1OC(=O)NN=C1c1ccc(-c2ccc(F)cc2)c(C(F)(F)F)c1 | phase I trial, measured: Nausea worst grade 1 | human patients | 20 mg loading then 1 mg daily | – | patients with adverse event | 0%
COc1cc2c(Oc3ccc4[nH]c(C)cc4c3F)ccnc2cc1OCC1(N)CC1 | – | paediatric recurrent refractory sarcoma | 12 mg | – | Neutropenia incidence | 45.5%
C=C(CN(C(=O)c1c(C(F)F)nn(C)c1F)C1CC1)c1ccc(Cl)cc1Cl | static acute toxicity test | zebrafish (Brachydanio rerio) | 0.833 mg a.i./L, 72 h | – | mortality | 20%
CN(C(=O)n1cnc(-c2ccc[n+]([O-])c2)c1)C1CCCCC1 | – | Wistar rat, midbrain | oral, 10 mg/kg/day, 48 h, repeated 5 days | – | concentration | 13.2 ± 1.6 ng/g
COc1ccc2nc3cc(Cl)ccc3c(Nc3cc(CN4CCCC4)c(O)c(CN4CCCC4)c3)c2n1 | – | mouse, blood | intraperitoneal, 14 mg/kg | – | platelet count | 98.3 10⁹/L
Clc1cc2c(cc1Cl)Oc1c(ccc(Cl)c1Cl)O2 | – | whole cow milk | 200 nM nominal | – | dose fraction in milk fat | 86.6%
CC(C)C[C@H](NC(=O)[C@H](C)NC(=O)[C@@H](NC(=O)[C@H](CCCNC(=N)N)NC(=O)[C@H](CC(C)C)NC(=O)[C@H](Cc1c[nH]c2ccccc12)NC(=O)[C@@H]1CCCN1C(=O)[C@@H](N)CCCCN)C(C)C)C(=O)N[C@@H](CS)C(=O)N1CCC[C@H]1C(=O)NCC(=O)O | – | sheep red blood cells | 16 µM, 1 h, 37 °C | – | hemolysis | 0.64% and 0.35% and 0.23%
O=C(O)CCCOc1ccc(F)cc1-c1cc(-c2ccccc2C(F)(F)F)n(-c2ccccc2)n1 | – | female Crl:CD(SD) rats, liver | intravenous, 25 µg/kg, 1 d | – | relative organ weight | 2.77 ± 0.18 g%
CN1CC[C@@H](c2c(O)cc(O)c3c(=O)cc(-c4ccc(C(F)(F)F)cc4Cl)oc23)[C@@H]1CO | measured: Dyspnea | B-cell malignancies or AML | oral, 50 mg, continuous dosing | – | patients with adverse event | 12.5%
Cn1cncc1-c1c(F)cncc1NC(=O)c1c(N)nn2cc(F)cnc12 | – | human patients | oral, 270 mg once daily | – | grade ≥3 platelet decrease incidence | 25%
N=C(N)NCCNC(=O)C1(Nc2ccccc2)CCN(Cc2ccccc2)CC1 | – | Sprague-Dawley rats, both sexes | intravenous, 2.5 mg/kg, mean of both sexes | – | elimination rate constant | 0.000222 s⁻¹
COc1ccc(-c2c(-c3ccc(C#N)c(F)c3)nc(N3CCC(N)CC3)n(C)c2=O)cc1F | measured: Diarrhea | relapsed/refractory marginal zone lymphoma patients | oral, 60 mg, grade 3 to 4, dose expansion | – | treatment-related adverse event incidence | 0%
CCCCCCCCCCC[C@H](OC1OC[C@H](O)[C@@H](O)[C@@H]1O)[C@H](O)[C@H](O)C[C@@H]1CC(=O)N[C@H](CO)C(=O)N[C@H]([C@H](O)c2ccc(O)cc2)C(=O)N[C@H](CCN)C(=O)NCC(=O)N[C@@H](CC(N)=O)C(=O)N[C@@H](CO)C(=O)N[C@@H]([C@H](O)C(N)=O)C(=O)N1 (some centres unmarked) | LC-MS/MS | rabbit plasma, sodium citrate | 200 ng/mL, 3 freeze-thaw cycles, stored at -80°C | – | measured concentration | 169 ng/mL
CO[C@H]1C[C@@H]2CC[C@@H](C)[C@@](O)(O2)C(=O)C(=O)N2CCCC[C@H]2C(=O)O[C@H]([C@H](C)C[C@@H]2CC[C@@H](OC(=O)NCCOCCOCCOCCOCCOCCOCCOCCOCCC(=O)N3CCc4cc(Cn5nc(-c6ccc7oc(N)nc7c6)c6c(N)ncnc65)ccc4C3)[C@H](OC)C2)C[C@@H](O)[C@H](C)/C=C(\C)[C@@H](O)[C@@H](OC)C(=O)[C@H](C)C[C@H](C)/C=C/C=C/C=C/1C | dose-escalation trial | patients with advanced solid tumours | intravenous, all doses weekly, grade ≥3 | – | AEs leading to dose reduction | 5.3%
C/C(=N\C#N)N(C)Cc1ccc(Cl)nc1 | – | test soil | 0.12 mg/kg nominal, 0 days | – | measured soil concentration | 0.06 mg/kg dry soil
CCc1ccc(CC/C=C/c2ccc3c(c2)C(=O)CC3)cc1 | – | Sprague-Dawley rat, female | oral, 30 mg/kg/day, 14 days | – | HDW | 23.6 g/L
C[C@]1(CO)Cc2ncn(-c3ccc(C#N)c(Cl)c3)c2C(=O)O1 | – | human | oral, 10 mg, high-fat breakfast, adjusted geometric mean | – | Cmax | 335 nM
COc1cc(C(=O)NC2CCN(C)CC2)c(F)cc1Nc1ncc(C(F)(F)F)c(Oc2cccc3c2C(=O)N(C)C3)n1 | – | human patients, plasma | oral, 50 mg single dose, geometric mean | – | mean residence time | 32.5 h
COc1ncnn2ccc(-c3cnc4nc(C)n(Cc5nnc([C@@H](C)F)o5)c4c3)c12 | – | human patients | oral, dose not given | – | incidence of grade ≥3 tumour lysis syndrome | 14.3%
Cn1c(-c2ccc(C(N)=O)cc2F)nnc1C(C)(C)Oc1c(F)cc(Cl)cc1F | – | human | oral, dose not given, single ascending dose all doses | – | subjects with general disorders TEAE | 22.2%
CC(C)c1nc(N(C)S(C)(=O)=O)nc(-c2ccc(F)cc2)c1/C=C/[C@@H](O)C[C@@H](O)CC(=O)O | – | healthy human subjects | oral, dose not given, study CL-0537 safety set | – | incidence of Constipation | 3.6%
c1ccc2c(c1)ccc1c3ccccc3ccc21 | metabolism | pooled human liver microsomes | pH 7.4 | – | Vmax | 11.7 pmol/min/mg
COc1cccc(Oc2ccccc2NC(=O)CNC(=O)c2cccc3ccccc23)c1 | – | esterase-deficient SCID mice, male | oral, 15 mg/kg/day, 14 days, toxicity study | – | albumin/globulin ratio | 1.3 and 1.4
C=CC(=O)N1CC[C@H](n2nc(C#Cc3cc(OC)cc(OC)c3)c3c(N)ncnc32)C1 | – | human patients | oral, dose not given, QD regimen, adverse drug reaction, added: lanthanum carbonate hydrate | – | hyperphosphatemia incidence, grade ≥3 | 8.3%
CC(C)C[C@H](NC(=O)[C@H](CCCCN)NC(=O)OCC1c2ccccc2-c2ccccc21)C(=O)N[C@H](C(=O)N[C@@H](Cc1ccccc1)C(=O)N[C@@H](Cc1ccccc1)C(=O)N[C@@H](CCCCN)C(=O)NCC(=O)N[C@@H](Cc1ccccc1)C(=O)N[C@@H](C)C(=O)N[C@@H](Cc1c[nH]c2ccccc12)C(=O)N[C@@H](CC(N)=O)C(=O)N[C@H](C(=O)N[C@H]1CSSC[C@@H](C(=O)N[C@@H](Cc2c[nH]cn2)C(=O)N[C@@H](CCCNC(=N)N)C(=O)N[C@@H](CCCNC(=N)N)C(=O)N[C@@H](C)C(=O)N[C@@H](CC(N)=O)C(N)=O)NC(=O)[C@H](C(C)C)NC(=O)[C@H](CCCNC(=N)N)NC(=O)[C@H](C(C)C)NC(=O)CNC(=O)[C@H](CC(N)=O)NC(=O)[C@H](CCCNC(=N)N)NC(=O)[C@H](Cc2ccc(O)cc2)NC(=O)[C@H](C(C)C)NC1=O)C(C)C)C(C)C | – | ICR mice, blood | intraperitoneal, 5 mg/kg, day 5 | – | monocytes | 2.93 ± 0.35%
O=C(Nc1ccccc1)C1CCN(C(=O)Oc2cccnc2)CC1 | psychotropic effects VAS | healthy women | 20 mg | baseline: pre-dose baseline, direction not given | change in Surroundings score | 0.1

Excerpt of the above:
Structure (SMILES) | assay | test system | setting | how to read | quantity | result
CN(C(=O)n1cnc(-c2ccc[n+]([O-])c2)c1)C1CCCCC1 | – | Wistar rat, midbrain | oral, 10 mg/kg/day, 48 h, repeated 5 days | – | concentration | 13.2 ± 1.6 ng/g
Cn1c(-c2ccc(C(N)=O)cc2F)nnc1C(C)(C)Oc1c(F)cc(Cl)cc1F | – | human | oral, dose not given, single ascending dose all doses | – | subjects with general disorders TEAE | 22.2%
COc1ccc(-c2c(-c3ccc(C#N)c(F)c3)nc(N3CCC(N)CC3)n(C)c2=O)cc1F | measured: Diarrhea | relapsed/refractory marginal zone lymphoma patients | oral, 60 mg, grade 3 to 4, dose expansion | – | treatment-related adverse event incidence | 0%
C[C@]1(CO)Cc2ncn(-c3ccc(C#N)c(Cl)c3)c2C(=O)O1 | – | human | oral, 10 mg, high-fat breakfast, adjusted geometric mean | – | Cmax | 335 nM
